Measurements gathered from unrelated publications.
Each line is one published result; not all experiments were run side by side. Values joined by “and” are separate records of one study, mostly repeats; a detail may differ. ± gives the spread as reported.

SMILES | target | test | test system | conditions | how to read | quantity | result
COC(=O)C1(C)C=C(C(=O)OC(C)(C)C)C(=O)CC1 (stereo not drawn) | Mitogen-activated protein kinase 8 (MAPK8, Homo sapiens, UniProt P45983) | D-peptide binding, inhibitor, FP peptide displacement | – | 1000 µM | lower is stronger displacement | fraction bound | 0.0913
CCOC(=O)[C@](CC)(CCCSCCOCCOCCNC(=O)CCCCCN1C(=CC=CC=CC2=[N+](C)c3ccc4ccccc4c3C2(C)C)C(C)(C)c2c1ccc1ccccc21)NC(=O)c1ccc(C2CC2)c(Cc2ccc(F)cc2)n1.[Cl-] | Cannabinoid receptor 2 (Cnr2, Mus musculus, UniProt P47936) | cAMP, agonist | – | – | – | Emax | 119%
Cc1cc(C)cc(COc2cc3c(cc2OCc2cc(C)cc(C)c2)C2CC(O)(Cc4cn(CCOCCOCCNC(=O)CCCCC5SCC6NC(=O)NC65)nn4)CC(C)N2CC3)c1 (stereo not drawn) | Proteasome activator complex subunit 2 (Homo sapiens, UniProt Q9UL46) | biotinylated probe pull-down, item: PSME2 | – | 10 µM probe | baseline: heavy over light | SILAC ratio | 2.21
Nc1ncnc2c1ncn2C1OC(CN(CCCC2CNCc3c2ccc(Cl)c3Cl)CCC(N)C(=O)O)C(O)C1O (mixture of isomers) | Phenylethanolamine N-methyltransferase (PNMT, Homo sapiens, UniProt P11086) | ITC | – | first site, without SAH | – | −TΔS-1 | -16.2 ± 0.1 kcal/mol
O=C1N(c2cccc(CN3CCN(Cc4ccc(Br)cc4)CC3)c2)C(=O)C12CCCCC2 | Dipeptidyl peptidase 8 (Homo sapiens, UniProt Q6V1X1) | inhibitor | – | added: GP-AMC substrate | baseline: Ki' DPP9 over Ki' DPP8 | selectivity ratio | 3
O=C1c2sc(-c3ccc(N4CCC(F)C4)nc3F)nc2CCN1c1cccnc1 (stereo not drawn) | TAR DNA-binding protein 43, aggregated (TARDBP, Homo sapiens, UniProt Q13148) | binding, surface plasmon resonance | brain-derived TDP-43 aggregates | 2.34 nM | – | SPR response | 0.599 RU
C[Si](C)(C)C[C@H](CN)CC(=O)O | B1 bradykinin receptor (BDKRB1, Homo sapiens, UniProt P46663) | ligand displacement, radioligand | – | 250 µM | – | inhibition | 3%
CC[C@H](C)[C@@H]1NC(=O)[C@H](Cc2c[nH]c3ccccc23)NC(=O)[C@H](Cc2ccccc2)N(C)C(=O)[C@H](C(C)C)NC(=O)[C@H](CC(C)C)NC(=O)[C@H](Cc2ccccc2)NC(=O)CSC[C@@H](C(=O)N[C@@H](CC(N)=O)C(N)=O)NC(=O)[C@H](Cc2ccccc2)NC1=O | Stimulator of interferon genes protein (STING1, Homo sapiens, UniProt Q86WV6, H232R) | thermal stability, DSF | – | 200 µM | – | ΔTm | 3.23 °C
N#CN1CC[C@H](C(=O)Nc2nc3c(s2)CN(C(=O)Cn2cc(CNC(=O)CCCC[C@@H]4SC[C@@H]5NC(=O)N[C@@H]54)nn2)CC3)C1 | Isochorismatase domain-containing protein 1 (Homo sapiens, UniProt Q96CN7) | probe binding, affinity probe, neutravidin pull-down LC-MS/MS | HEK293T, cell lysate | 5 µM, 1 h, single replicate, unit not given | higher = more pulled down | iBAQ abundance | 8.98e+07 and 1.54e+08 and 2.93e+08
CCCCCCCO[C@H]1CO[C@H](CO)[C@@H](O)[C@H](O)[C@@H]1O | Type 1 fimbrin D-mannose specific adhesin, lectin domain (fimH, Escherichia coli K-12, UniProt P08191) | binding, isothermal titration calorimetry | – | 15 °C, individual direct titrations | – | -TΔS | 0.263 kcal/mol and 0.12 kcal/mol
CCCCCC(O)/C=C/C=O (stereo not drawn) | Myosin regulatory light chain 12B (MYL12B, Homo sapiens, UniProt O14950) | competitive isoTOP-ABPP, item: MRLC2 cysteine peptide | Ramos soluble proteome | 100 µM, added: iodoacetamide probe | baseline: DMSO over compound-treated, higher = stronger cysteine blockade | isoTOP-ABPP competition ratio | 2
CC(C=CC=C(C)C=CC1=C(C)CCCC1(C)C)=CC=O | Rhodopsin (RHO, Homo sapiens, UniProt P08100, T17M) | ER retention, immunostaining co-localization, item: opsin with calnexin | COS-7 transfected T17M | 1.00 µM | – | Pearson correlation coefficient | 0.71
